Published values pooled from the literature.
Compare with care: the assays were run in different laboratories. ± gives the spread as reported.

`Cc1ccc(Cn2cc(COc3cccc(Cc4cnc(NC(=O)CSc5nc(C)cc(C)n5)s4)c3)nn2)cc1` has an inhibition of 4.8 ± 3.1% (PC-3M-luc; colony formation, colony forming; 1 µM).
Under “log2 fold change”, `Cc1cc(Nc2ncc(Cl)c(Nc3ccccc3S(=O)(=O)C(C)C)n2)c(OC(C)C)cc1C1CCNCC1` is recorded as -1.99 (CLB-BAR; phosphoproteomics LC-MS/MS, refers to: SHC3 phosphorylation; 200 nM, 60 min; relative to: untreated).
Under “log2 fold change”, `Cn1cc(-c2ccc(-c3cncc(Cl)c3N3CCC4(CCNC4=O)CC3)cc2)cn1` is recorded as -2.46 (COLO 205; gene expression, microarray, refers to: HIST1H4J mRNA; concentration not given, 2 h; relative to: untreated cells).
For `C#C[C@@]1(O)[C@@H](CO)O[C@@H](n2ccc3c(N)ncnc32)[C@@H]1O`, the LC50 was -4.32 log M (NCI60 panel; cell viability; mean over panel).
The viability of `O=C(CCCCCCC(=O)Nc1ccccc1)NO` is reported as 55.6% (MCF-10A; CellTiter-Glo; concentration not given; relative to: normalised, mean of replicates).
Under “uniquely up-regulated genes number”, `CCCCc1oc2ccccc2c1C(=O)c1cc(I)c(OCCN(CC)CC)c(I)c1` is recorded as 253 (human embryonic stem cell aggregates; microarray; 4 µM, 120 h).
With `Cc1ccc(CNC(=O)Cn2cc(CSc3nc4ccccc4[nH]3)nn2)cc1` the cytotoxicity was 81.4% (MDA-MB-231; MTT; 15.6 ppm).
`O=C(/C=C/C=C/C=C/C1CCCCC1)NC1=C[C@@](O)(/C=C/C=C/C=C/C(=O)NC2=C(O)CCC2=O)[C@@H]2O[C@@H]2C1=O` gave a GI50 of 16.9 µM (RVH-421; cell growth, CellTiter-Glo; 78 h).
Under “point of departure”, `CCOC(=O)/C=C\C(=O)OCC` is recorded as 245 µM (HepG2; refers to: glutathione; 24 h, distribution mode 2).
Under “G2/M cells in subpopulation”, `C=CCn1c(=O)c2cnc(Nc3ccc(N4CCN(C)CC4)cc3)nc2n1-c1ccc2c(n1)[C@@](O)(CC)CC2` is recorded as 58.8% (NCI-H1048; flow cytometry, refers to: pHH3-γH2Ax-; concentration not given).
For `O=C(O)c1cc(N2N=C(C(F)(F)F)/C(=C/c3ccc(-c4ccccc4)o3)C2=O)ccc1Cl`, “basal cytosolic Ca2+ level” read “increased” (platelets; 3 to 10 µM).
With `COc1cnc2cccc(N3CCc4c(cc(Cn5ccnc5C)cc4-c4cn(C)nc4C(F)(F)F)C3=O)c2c1` the EC50 was over 30 µM (SK-HEP1; cell growth, inhibitor; 120 h).
For `CC1(C)COc2ccc(F)cc2CN2c3nc4c(cnn4cc3OC[C@H]2C(F)F)C(=O)N1`, the Emax was 98.8% (Ba/F3 EML4-ALK variant 1 S1206Y; cell viability).
The EC90 of `O=C(/C=C/c1ccc(O)c(O)c1)OCCc1ccccc1` is reported as 15.1 µM (Toxoplasma gondii; parasite growth, luciferase reporter; HFF, tachyzoite; 72 h).
With `CCn1cc(-c2cc(Cn3ccoc3=N)cc3c2CCN([C@@H](C)c2cc(OC)ccn2)C3=O)c(C(F)(F)F)n1` the EC50 was 0.0775 µM (SBC-5; cell growth, inhibitor; 120 h).
`C=CCNC1=C2C[C@@H](C)C[C@H](OC)[C@H](O)[C@@H](C)/C=C(\C)[C@H](OC(N)=O)[C@@H](OC)/C=C\C=C(/C)C(=O)NC(=CC1=O)C2=O` — result for “bottom of curve”: 57.5% (MYBPC3 mutant iPSC-derived cardiomyocytes; refers to: MYH; relative to: vehicle).
For `CCOC(=O)c1cccc(NC(=O)c2scc(C)c2S(=O)(=O)N(C)c2ccc(OCC)cc2)c1`, “reporter gene activity” read “inhibited” (CCF-STTG1; ABCA1 promoter; concentration not given).
For `Cl`, the Km was about 25 mM (human neutrophils; anion exchange, substrate, trans-stimulated sulfate efflux; external binding site).
Under “log2 fold change”, `O=c1[nH]nc(OCCCc2ccc(Cl)cc2)c(NCc2cccnc2)c1Br` is recorded as 1.69 (HEK293T; RNA-seq, refers to: ATF3 mRNA; 10 µM, 6 h; relative to: vehicle).
For `CC(=O)c1nn(-c2ccccc2Cl)/c(=N/N=C(\C)c2ccc(NC(=O)c3ccccc3)cc2)s1`, the cytotoxicity was 90.4% (MCF7; MTT; 0.156 µM).
`CCCCCCNc1nc(NC2CCN(C)CC2)c2cc(OC)c(OC)cc2n1` gave an EC90 of 3.56 µM (Toxoplasma gondii; parasite growth; HFF, bradyzoite, glutamine-induced).
With `CC(C)NCC(O)c1ccc(O)c(O)c1` (stereo not shown) the sarcomere length was 1.8 µm (mouse ventricular cardiomyocytes; dose not given, 0.379 s).
